# Assay results pooled from the literature.
# Parts stem from different laboratories: compare values within a part only.

# Series 1 — technique: protein-binding microarray; form: double-stranded DNA, one strand shown; matrix: in vitro; concentration: 2200 nM top; notes: 60-bp whole probe; together with: salmon DNA 0.4 mg/ml; relative to: random background probes; direction: higher = stronger binding; shared flanks, not repeated: GCCTAGCAC … GTCTTGATTCGCTTGACGCTGCTG
# Target: Interferon regulatory factor 7, full length, phosphomimetic (IRF7, Homo sapiens, UniProt Q92985, residues 1-503, S471D/S472D/S475D/S476D/S477D/S483D/S484D/S487D)
# UniProt Q92985, sequence (whole entry, unmodified, looked up): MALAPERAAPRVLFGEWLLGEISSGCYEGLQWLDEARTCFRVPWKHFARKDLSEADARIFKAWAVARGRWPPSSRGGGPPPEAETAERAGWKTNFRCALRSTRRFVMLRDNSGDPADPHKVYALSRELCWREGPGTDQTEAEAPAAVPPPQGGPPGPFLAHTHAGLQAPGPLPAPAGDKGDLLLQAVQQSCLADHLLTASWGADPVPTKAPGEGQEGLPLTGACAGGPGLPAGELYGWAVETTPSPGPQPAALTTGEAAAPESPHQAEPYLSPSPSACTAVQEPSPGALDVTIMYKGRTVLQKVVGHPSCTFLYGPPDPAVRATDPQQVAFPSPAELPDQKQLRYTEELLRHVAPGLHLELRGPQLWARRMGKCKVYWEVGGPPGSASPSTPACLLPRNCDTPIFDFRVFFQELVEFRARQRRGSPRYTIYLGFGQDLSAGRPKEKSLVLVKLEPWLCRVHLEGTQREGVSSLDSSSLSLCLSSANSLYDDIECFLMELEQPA
Sequence,fitted relative affinity [z-score]
GACGGTCTGGGTTTCGGGACGTGCTAG,1.3
TTAGCACTGCTTCTCCTTTAGTGCTAG,1.09
GGCGGTTCCCTTTTCCTGACGTGCTAG,1.78
GACGGTCTCGGTCTCAGGACGTGCTAG,-0.00583
GACGATTTCAGTCGCGAGACGTGCTAG,0.662
GACGATATCTGTCTCGAGACGTGCTAG,0.668
GACGATTTCGGGTATCGACACGTGCTA,2.76
GACAGTATCCTTCTCCTGACGTGCTAG,1.4
TTGGGTTTCGGTTTCGGTTAGTGCTAG,15.1
GACGATATCGGGTTTGGAGACGTGCTA,0.353
TACGGACTGCTTTTCCTGACGTGCTAG,0.873
TTAGATCTCAGTTTCGATGAGTGCTAG,1.84
GACGTTATCGGTTTCGGGACGTGCTAG,4.56
GACGAACTGAGTCTCTAGACGTGCTAG,-0.0316
TCAACATTCACCATGGCACTGTGCTAG,0.952
GACCGTTTCGGGACTGGGGACGTGCTA,2.35
GACGGACTGGGTAGCGGGACGTGCTAG,-1.12
GTCGATTTCGGGTATCGAGACGTGCTA,3.42
ATGAGTCTCAAAATTAGAGAGTGCTAG,-0.675
GGTTTTCTGGTTCCCATTCCGTGCTAG,6.89
GACGATTTCAGAATCGAGACGTGCTAG,0.727
GACGGATTCGGGTTTCGGGACGTGCTA,3.26
TCATAAAACAACTTTCAAACTGTGCTA,-0.634
TTAGGTTCCGGTTTCAGTTAGTGCTAG,4.68
TAAGGTTTCGGTCTCGGTTAGTGCTAG,6.11

# Series 2 — technique: aptamer microarray, sandwich; form: DNA with 2'F-ANA; matrix: in vitro; concentration: 200 nM; together with: Cy3 exosite-II aptamer, 400 nM; direction: higher = stronger binding; sequence: GGTTGGTGTGGTTGG
# Target: Prothrombin, mature alpha-thrombin (F2, Homo sapiens, UniProt P00734)
# Notes: whole 15-mer aptamer, many near background
Modification,mean fluorescence intensity [a.u.]
2'F-ANA at 1 4 10 14 15,43.3
2'F-ANA at 1 2 3 6 7 8 9,252
2'F-ANA at 1 2 3 6 8 9 10 11 13,61.9
2'F-ANA at 1 2 5 8 9 12 13,86.7
2'F-ANA at 1 4 5 7 8 10 11 13 15,49.2
2'F-ANA at 1 3 4 6 10 12 14,55.8
2'F-ANA at 1 4 5 8 10 12 14 15,44
2'F-ANA at 1 2 8 10 11 13 15,63.3
2'F-ANA at 2 3 6 7 12 13 14 15,386
2'F-ANA at 2 3 4 6 7 10 11,206
2'F-ANA at 2 4 5 6 10 11 14 15,102
2'F-ANA at 3 4 5 6 7 8 10 12 14 15,52.1
2'F-ANA at 1 5 11 14,43.9
2'F-ANA at 2 3 4 7 8 14 15,462
2'F-ANA at 1 2 6 9 10 13 14 15,50.9
2'F-ANA at 1 2 5 6 8 11 12 15,83.1
2'F-ANA at 2 5 6 7 8 9 11 12 13 15,87

# Series 3 — technique: protein binding microarray; form: double-stranded DNA, one strand shown; matrix: in vitro; concentration: not given; relative to: not given; direction: higher = stronger binding
# Target: Histone acetyltransferase KAT6A, both winged helices, GST fusion (KAT6A, Homo sapiens, UniProt Q92794, residues 1-181)
# Notes: 8-mer, flanks averaged, mean of 2 arrays, mostly near background
# Residues (chain): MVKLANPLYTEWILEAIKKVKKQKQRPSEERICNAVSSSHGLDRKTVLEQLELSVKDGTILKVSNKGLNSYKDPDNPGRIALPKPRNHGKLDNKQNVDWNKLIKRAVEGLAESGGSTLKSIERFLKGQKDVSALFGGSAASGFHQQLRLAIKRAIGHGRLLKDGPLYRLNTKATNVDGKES
Sequence,E-score
CAATCCAC,-0.223
GGTTTGAC,0.104
CGCGAATA,0.197
AGCCATAG,-0.112
ACGCCCGA,0.252
ACGAATCG,0.162
CACCATTC,-0.202
CGACGGGA,0.332
AGTCCTCA,-0.163
CCCCATAC,-0.0909
CCATGCGG,0.122
CTTGGGGA,-0.124
TACGGACA,0.187
TACAACTA,-0.0564
TCGGCTCA,0.119
AGGGTCTG,-0.16
CGATTAAC,0.0971
TATTGAGA,-0.156
CCCATGCC,-0.0384
GAGACATA,-0.139
ACCACGAT,-0.243
GGGGTTAA,-0.107
GGCGGTAA,0.284
CGTAGAAA,0.0134
ACACCTGG,-0.152

# Series 4 — technique: RNA Bind-n-Seq; form: RNA; matrix: in vitro; concentration: 365 nM; relative to: no-protein control; direction: higher = stronger binding
# Target: RNA binding protein fox-1 homolog 2, RRM domain, GST-SBP tag (RBFOX2, Homo sapiens, UniProt O43251-10, residues 100-194)
# Notes: natural RNA segment, single round, ends assumed
# Shared flanks, not repeated: GGGAGUUCUACAGUCCGACGAUC … UGGAAUUCUCGGGUGCCAA
# Construct (chain): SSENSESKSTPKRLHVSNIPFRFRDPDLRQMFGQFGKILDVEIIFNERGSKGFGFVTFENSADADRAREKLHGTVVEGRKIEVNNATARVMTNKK
Sequence,RBNS enrichment (R)
CUUGCCGAUAAUACUGACUCUAGCCCAUGAUUGCCUUGCCCAAGCCAAAGAGGAAGGUUAGGUUGGCUUGUCGAGCCCUUGAGCGUUGGGAGAUGGGGUGGGAAGGAGGU,0.965
AAGAGUCAUAUUUUUUGGCUUUGUAGAUAAAGACUUAAAUUUUUGUGCAAAAUAGUGGUGGUAAAGCACACAUCAUUGGACUAUGCAAGUUGAUUUCUAGGAGCAGCACU,0.51
UUUUCCCCCAUAAUUUAAAGUUCAGUCAUUAAGCUGUUACAUCCCUCUGAAGUUGAUUGUCUUAUAUUCCCGCUAUGAGAUAUCUCAAAGAUUCUUAAUCAAGAGUUUCA,0.61
GUUACAUUGGAAUGCUUACUGUCCUACAGAGUGGCAGCAAAUAAAACCUUGCAUUCCAUCAAGCCAAAAUAGCACACUCUGUUAGAGGAGAUACAUGUUUAAGAUAGAAU,0.586
GGCUAUUUUCUCUUCUCGCCGUAGUGCCGUUGGUUUCACAUGAUUGCACUUUUGUGGGUCGCAAGGUGAUACAUACGUGUAUUACUUGGUCACUGGAUGCAGAAGUACCC,0.405
AUCUGGCGCUUUUUCUAUCGUCUCUGCUAUGUCACUGAAUUAACCACUGUACGUGGCAGAGGUGGCAGGCCCCUCAGGGUCCUUAUUUUUCAGGCAUGGGGUCAAAGCUA,0.247
UGCUCUUAAAAGCACUCAUAGAAAGUGUAAGCAUGUGUAAGCAUGUCCUGAAUAGCUUACUAUUCUGUCAUGGUAAAACACAGCCUUUCUGUUCAAAUAUUAGGCCAAUC,0.275
UUGUGUGGAGUGGUGUGUCAGCCCUUGAACAUCUCCUCCAAAGAGACUAGAAGAGUCUUAAAUUAUAUGUGGGAGGAGGAGGGAUAGAACAUCACAACACUGCUCUAGUU,1.66
AGGUCUGCCCACCCAGCUGAUCUCGGAGUCCUGGCCCCAGUCCAUGUGUAGCUCUAAGAACAUGAAGUAGCUGGUUGCAAGAUGGACCAACUCACCAAGUGUCAGCCCAG,0.845
CCCCUCCGAGAAGGUGGCUGCGAGACAUGUCAUUCUACGGACCUGACUUGUCACAGUAGAGAUGCUGACAAACCACAUGUGGGAUUGCUAUGCUCCAAGGAUCACCUCAG,0.366
CAUUAUUUUGACACUUUUAAUUUUCAUUUAACAAUGGAUUAGAAAAAUAUUUUGGUCUAGCCACUAAACAUAAUGACUGAAAAAAAUUAUUAUUAUAAAUCACCAAUAUA,0.579
UUUAUUUGUAUGUUGAAUGUACAGAUUCAUUUCAAGAAAAGCAUGAAGAUAAUGAAAGCAAAUAUGUAACAAUACAAGUAGGGACUUUAGAGCUUCUAUUUGGGUUAAAA,15.9

# Excerpt of the above (series 3):
Sequence,E-score
CACCATTC,-0.202
AGTCCTCA,-0.163
AGGGTCTG,-0.16
CGCGAATA,0.197
TATTGAGA,-0.156
GAGACATA,-0.139
TACAACTA,-0.0564
CTTGGGGA,-0.124
CAATCCAC,-0.223
TCGGCTCA,0.119
GGTTTGAC,0.104
CCCATGCC,-0.0384
